Results of several laboratories.
Numbered parts are unrelated; each lists some results of a single study. Positions count from the first letter of the parent shown.

Set 1 — method: protein binding microarray; form: double-stranded DNA, one strand shown; matrix: in vitro; concentration: not given; relative to: not given; direction: higher = stronger binding; measurement: E-score
Target: Histone acetyltransferase KAT6A, winged helix 2, GST fusion (KAT6A, Homo sapiens, UniProt Q92794, residues 85-181)
Notes: 8-mer, flanks averaged, mean of 2 arrays, mostly near background
Construct (chain): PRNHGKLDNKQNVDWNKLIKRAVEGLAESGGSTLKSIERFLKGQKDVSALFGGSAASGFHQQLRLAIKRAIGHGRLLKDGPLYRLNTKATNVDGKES
AGATGGCC: -0.0738
ATATTAGC: -0.0286
CCCTGCGC: 0.189
ATACTAAT: 0.057
AGATGCAT: -0.0675
TAACAACA: 0.0424
TAAAAATA: 0.217
ACCAAACT: -0.0848
ATCATGGC: -0.0436
AATGGGGA: -0.15
CCGCCAAG: 0.0004
ACCTCACT: -0.00714
GTCAAAAC: 0.118
ATCCGGGA: -0.0216
AATGGTCC: -0.0345
CACGTACA: -0.276
ACCTGTCT: -0.134
GAGGACAC: -0.0344
TCGACCGA: 0.156
GAGTGAGA: 0.0718
ACTCGCTA: -0.0358
GATAGGAA: 0.0841
AATGCCGG: 0.144
CACGTTCA: -0.113
CTCTACAA: -0.0454

Set 2 — method: RNA Bind-n-Seq; form: RNA; matrix: in vitro; concentration: 365 nM; relative to: no-protein control; direction: higher = stronger binding; measurement: RBNS enrichment (R)
Target: RNA binding protein fox-1 homolog 2, RRM domain, GST-SBP tag (RBFOX2, Homo sapiens, UniProt O43251-10, residues 100-194)
Notes: natural RNA segment, single round, ends assumed
All sequences stand within: GGGAGUUCUACAGUCCGACGAUC … UGGAAUUCUCGGGUGCCAA
Construct (chain): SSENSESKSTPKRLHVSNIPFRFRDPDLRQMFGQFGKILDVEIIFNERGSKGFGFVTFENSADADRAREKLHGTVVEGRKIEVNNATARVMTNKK
GCAAGUGAAAAGGGUGGGUCCCUCAUAGGCUAGAAUGUGCAGCUCUUUCUCCAGGUGGGAUGUAGCACCCCGAAGUAGAGCUUUCUGCUCUGCUCCUGGAAAAGGCUAGG: 0.666
CAGCCCCAAUAGUCCCUGCUCCUCUUAGAAUCUUCACCAAGUGGCAGGCCACCUCUGGGCAGGACCACCUGCGUCUGGCACCCAGGAGGUGAGGCAGACACCAUGGUUAG: 0.288
GGGACCCUCCUCAUACAGCUCGUGCGGAUCUGCAGUGUGUUCUGACUCUAAUGUGACUGUAUAUACUGCUCGGAGUAAGAAUGUGCUAAGAUCAGAAUGCCUGUUCGUGG: 0.776
UAUAGCUCCUGAGGGAAGCCAAUCAACUUCUGUUUUCCUACCUGACCUGCAGGGCAUGAUGGAUCAGUGAUGAAAGAAUUGUAGCCUGUGGCACUUUGUUUUGACCUCUG: 2.49
AAAGCAAAUUAAAAAAAAAUACAUUAGGAAAAGUUACACAAAUGAAGUGUACGCCUAUUAUAUUCCCAAGGCAUUUUUGUGGGGAGGAACAGUGCUGCUUGUUGGCCUUU: 0.696
AGAGCAUUAUUUAUUUAAAGAAUUUAUGUUUUCUAUAAAACCUUAUAACCAAGAACCUUCAGGAUGCUUGUAACCAAGUACUUUCAGGAUGCUUUUUGUAUGUAUAUCAC: 0.882
GGAAUGUGUGAAAAACAGCUGCUCUCCUUGUCCCAGCUUUGUGAUUGAGCCCUCUGUCUUGCUCUCUCUGCCUUCCCUGUGUCUUUCUUCUCUUACCAGAGCAUCUGUUU: 0.736
AGUCUGCACACCUACUCUGCCUGUGGAAGCAGCACCUGGGCCUCCUGCCUGCUUUCCUCAAGACGAGAGAGACCCCAGACUGUGUGUGGUUCAUUAGAGCAGUCUGGCCA: 0.402
GCAGUGCCCCAGCUGGGAAGAGGGCGGGAUCGGGCACUGGUUCCUCCUUGUCCCCGCUUUCUUGGGGGCUUGCUACUUUUUGUCUUCUAUUGUGUGGCUUUCUGAGUAUU: 2.37
AGUGUAAUCUGCAGUGUCGUAACUAAAGUUACUGGCUUGGUCUUAUUUGCACAGUUUUUGCGUCUUGUUUGCUUCUUGCAUCUGAUUAACUAGAAUAUUUCUCUUUCCCC: 0.693
UGUCCACGGGGUCGAUGCUGUUAUUAGGUGAAAAUAGUGUGAUCUUUAAGACUUUAAAUACAGAUUUAGUUUUGAGUGUUUGAGAGACCACUACACUUGUAUGGUUGAGU: 0.63
GUCGUGAUGGAAAUAAACCUGAACCUGUUGCCCAGUACCAGGGCCUCUGCUGUUUGGUCUUCACUCUCUCUUCCUUGGAGGGAAAGCUACAAGAGACUCUCUUUUUAAUU: 0.223

Set 3 — target: CCNA1, cyclin fold, Cln2 fusion (human); method: yeast growth competition, sequencing; matrix: yeast; notes: weak parent motif; relative to: not given; direction: higher = stronger binding; measurement: normalised enrichment score
Parent: AKAP12 docking peptide (human); GSPLKKLFTSTGL; partner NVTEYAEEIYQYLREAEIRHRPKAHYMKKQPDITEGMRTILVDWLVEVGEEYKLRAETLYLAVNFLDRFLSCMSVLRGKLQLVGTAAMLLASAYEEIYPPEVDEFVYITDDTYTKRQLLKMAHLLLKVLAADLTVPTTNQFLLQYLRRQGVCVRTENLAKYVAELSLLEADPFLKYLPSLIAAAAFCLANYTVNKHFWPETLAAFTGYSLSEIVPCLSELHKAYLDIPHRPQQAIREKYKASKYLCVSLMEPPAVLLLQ
GSPLKALFTSTGL [K6A]: 0.0105
ASPLKKLFTSTGL [G1A]: -0.00693
GSPLRKLFTSTGL [K5R]: -0.541
GSPAKKLFTSTGL [L4A]: 0.0836
GAPLKKLFTSTGL [S2A]: 0.227
GSPLKKLFTATGL [S10A]: 0.122
GSPLKKLFTSTGA [L13A]: 0.338
GSPLAKAFTSTGL [K5A L7A]: -0.0675
GSPLKKLLTSTGL [F8L]: -0.576
GSPLKKAFTSTGL [L7A]: 0.0705

Set 4 — method: DHFR PCA, deep sequencing; matrix: yeast; added: (+)-ABA 0.39 µM; relative to: wild-type fitted maximum; direction: higher = stronger binding; measurement: relative binding score
Target: ABI1, truncated, D143A, DHFR fusion (Arabidopsis thaliana)
Notes: methotrexate growth selection, single substitutions
Parent: PYL1, truncated, DHFR fusion (Arabidopsis thaliana); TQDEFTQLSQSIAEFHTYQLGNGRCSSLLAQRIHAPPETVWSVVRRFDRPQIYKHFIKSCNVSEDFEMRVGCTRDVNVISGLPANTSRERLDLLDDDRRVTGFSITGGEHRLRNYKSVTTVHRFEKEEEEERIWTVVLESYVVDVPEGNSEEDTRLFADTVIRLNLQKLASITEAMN; partner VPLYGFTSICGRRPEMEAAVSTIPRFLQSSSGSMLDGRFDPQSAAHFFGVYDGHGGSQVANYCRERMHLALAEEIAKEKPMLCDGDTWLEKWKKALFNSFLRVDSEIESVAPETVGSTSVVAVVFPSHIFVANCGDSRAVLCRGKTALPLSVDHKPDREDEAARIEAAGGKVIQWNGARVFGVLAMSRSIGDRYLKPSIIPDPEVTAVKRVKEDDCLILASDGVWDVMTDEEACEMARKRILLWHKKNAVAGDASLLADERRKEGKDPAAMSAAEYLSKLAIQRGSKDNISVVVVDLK
E129D: 68.9%
E14S: 4.67%
H16C: -14%
I12Q: -0.296%
D3V: 23.6%
H16Y: 3.43%
V76E: -9.52%
L166P: 12.9%
V136E: -9.58%
K126T: 73.1%
E139S: 18.7%
L93N: -1.12%
S150E: 2.96%
F56D: -2.74%
F66Q: 18.4%
V142H: 2.94%

Set 5 — method: RNA Bind-n-Seq; form: RNA; matrix: in vitro; concentration: 200 nM; notes: whole 134-nt RNA, ends assumed; added: 150 mM LiCl; relative to: input library; direction: higher = stronger binding; measurement: log2 enrichment; each molecule: 7-deaza-guanosine replaces G
Target: Ras GTPase-activating protein-binding protein 1, full length (G3BP1, Homo sapiens, UniProt Q13283)
Sequence of UniProt Q13283 (whole entry, looked up): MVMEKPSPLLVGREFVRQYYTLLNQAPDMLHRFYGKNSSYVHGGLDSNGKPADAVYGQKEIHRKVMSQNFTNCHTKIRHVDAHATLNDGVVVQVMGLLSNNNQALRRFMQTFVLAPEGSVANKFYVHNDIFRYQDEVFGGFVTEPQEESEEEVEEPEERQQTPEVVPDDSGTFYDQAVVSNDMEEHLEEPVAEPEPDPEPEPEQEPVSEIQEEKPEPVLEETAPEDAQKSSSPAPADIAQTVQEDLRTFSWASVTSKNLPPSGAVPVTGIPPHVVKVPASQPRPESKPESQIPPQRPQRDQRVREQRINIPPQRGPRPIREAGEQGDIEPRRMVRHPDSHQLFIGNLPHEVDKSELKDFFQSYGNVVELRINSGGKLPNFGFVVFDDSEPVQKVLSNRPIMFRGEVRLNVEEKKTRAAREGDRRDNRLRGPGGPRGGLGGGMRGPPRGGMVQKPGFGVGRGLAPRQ
All sequences stand within: GGGAGUUCUACAGUCCGACGAUC … UGGAAUUCUCGGGUGUCAAGG
ACCAUGCAGGUGGGCAUCUUUGGGAAGUGGGGUAAGGGGGGGAUAGGGAGGGGGGUAACACUUUGGGAACAGGUGGUCCCAGGUCGUUUC: 0.318
AGUCCUGUGCUACACAUCGUAUGUACCGAAUCGGUUUUUUUGGAAAGGAAAAAAAGGAAAGUAUUAUGUUACGCCGUUCGGAUCUGCACU: -2.08
AGUCCUGUGCUACACAUCGUAUGUACCGAAUCGGGGAGGGGUUUUUGGGGAAAGGGGAAAGUAUUAUGUUACGCCGUUCGGAUCUGCACU: 0.55
UCCUGUGCUACACAUCGUAUGUACCGAAUCGGGGAAAAAAAGGGGUUUGGGGUUUGGGGAAAGUAUUAUGUUACGCCGUUCGGAUCUGCA: -0.606
UGGCCCUGGUGGCAUGCGGGGAGGAAGAGGUGGCCUCAUGGAUCGUGGUGGUCCCGGUGGAAUGUUCAGAGGUGGCCGUGGUGCAGACAG: -0.456
UCCUCAAGUCCUGUGCUACACAUCGUAUGUACCGAAUCGGAGGAGGGAGGGAAAGUAUUAUGUUACGCCGUUCGGAUCUGCACUUCCAGC: -1.13
GUCCUGUGCUACACAUCGUAUGUACCGAAUCGGGUUUUUGGGAAAAAAAGGGAAAGGGAAAGUAUUAUGUUACGCCGUUCGGAUCUGCAC: -1.58
ACCAUGCAGGUGGGCAUCUUUGGGAAGUGGGCCAAGGGGGGGAUAGGGAGGGGGGUAACACUUUGGGAACAGGUGGUCCCAGGUCGUUUC: 0.338
AGUCCUGUGCUACACAUCGUAUGUACCGAAUCGGGGUUUGGGGAAAGGGGAAAGGGGAAAGUAUUAUGUUACGCCGUUCGGAUCUGCACU: 0.262
CACAGACAACACGCACCCACACAGACACAGAGGGAAGGGGUUGGGAUGGGGACAGGCUGCACAGCAGGGCGGGGUAGGACCCCAGCCCCU: -0.0104
AAGUCCUGUGCUACACAUCGUAUGUACCGAAUCGGUUUUUGGUUUUUGGGUUUUUGGAAAGUAUUAUGUUACGCCGUUCGGAUCUGCACU: -0.371
